Results collected from several papers.
Protocols differ between the studies behind these lines. Several values in a cell are separate wells, animals, samples, runs or records. Numbers after ± are the reported error.
Cell line: A549

| SMILES | effect on | method | time | notes | together with | IC50 |
| --- | --- | --- | --- | --- | --- | --- |
| Cc1cc(C)c([N+]#[C][Pt-]([Cl])([Cl])=[C](Nc2ccc(CN[C](Nc3c(C(C)C)cccc3C(C)C)=[Au][Cl])cc2)Nc2c(C)cc(C)cc2C)c(C)c1 | cell growth or viability | – | – | – | – | > 100 µM |
| CCn1c[n+](CC)c2ccccc21 | cell growth or viability | crystal violet | 72 h | – | – | > 50 µM |
| CC(=O)O[C@@H]1CC[C@@]2(C)[C@@H](CC[C@]3(C)[C@@H]2C(=O)C=C2[C@@H]4[C@@H](C)[C@H](C)CC[C@]4(C)CC[C@]23C)[C@@]1(C)C(=O)NCCNC(=O)CCCCCCC[P+](c1ccccc1)(c1ccccc1)c1ccccc1 | cell growth or viability | MTT | 48 h | – | – | 18.4 µM |
| Oc1ccccc1-n1nc(-c2ccccc2)n[n+]1-c1ccccc1 | cell growth | resazurin | – | – | – | 320 ± 20 µM |
| CC1=CC(C)=[O+][Pt-2]([NH3+])([NH3+])[O]1.CC1=CC(C)=[O+][Pt-2]([NH3+])([NH3+])[O]1.O=S(=O)([O-])[O-] (centres unmarked) | cell growth or viability | MTT | – | – | – | 28 µM |
| [Cl][Cu][Cl].c1ccc(-c2nnc(-c3ccc4c(c3)OCO4)[nH]2)nc1 | cell growth or viability | MTT | 24 h | – | – | 4.17 µM |
| C=C1CC23CC4C5C6(C)CC(O)CC57C(C2C(O)C1C(O)C37)N4C6 (centres unmarked) | cell growth or viability | MTT | – | – | – | 17.7 µM |
| COc1c(C)c(OS(=O)(=O)c2ccccc2)c(C)c(O)c1C(=O)/C=C/c1ccccc1 | cell growth or viability | SRB | 72 h | – | – | 26.3 µM |
| O=C1c2cccc3cccc(c23)C12NC(Cc1ccc(O)cc1)C([N+](=O)[O-])C2c1ccccc1 (centres unmarked) | cell growth or viability | MTT | 24 h | – | – | 82 µM |
| COC(=O)CCC(=O)[O][Pt-2]1([OH])([Cl])([Cl])[NH2+]CC[N+]1(C)C | cell growth or viability | MTT | 96 h | – | – | 48 µM |
| Cc1cc(C)c(N=[C](NCc2cccc(N)c2)[AuH][Cl])c(C)c1 | cell growth or viability | – | – | – | – | > 100 µM |
| C=C1C(=O)[C@@]23CC[C@@H]4[C@](C)(COC(C)=O)CCC[C@@]4(COC(C)=O)[C@@H]2[C@@H](O)C[C@@H]1C3 | cell growth or viability | MTT | – | – | – | > 20 µM |
| CC1=NNC(c2cn(CC(=O)Nc3nc(-c4ccccc4)cs3)nn2)C1 (centres unmarked) | cell growth or viability | MTT | 72 h | – | – | 0.213 µM |
| C=C(CO)[C@@H]1CC[C@]2(C)CC[C@]3(C)[C@H](CC[C@@H]4[C@@]5(C)CCC(=O)C(C)(C)C5CC[C@]43C)C12 (some centres unmarked) | cell growth or viability | SRB | – | – | – | 14.3 µM |
| CN(C)c1cc[n+](Cc2cccc(C[n+]3ccc(N(C)C)cc3)c2)cc1 | cell growth or viability | MTT | 24 h | – | – | 757 µM |
| N#Cc1cccc(-c2ccc(=O)n(Cc3cccc(-c4ncc(OCC5CCN(CCCCCCCCCC(=O)Nc6cccc7c6C(=O)N(C6CCC(=O)NC6=O)C7=O)CC5)cn4)c3)n2)c1 (centres unmarked) | cell growth or viability | CCK-8 | 72 h | – | – | 21 µM |
| CCCCCCCC(=O)NCCNC(=O)[C@@]1(C)[C@H](O)CC[C@@]2(C)[C@H]1CC[C@]1(C)[C@@H]2C(=O)C=C2[C@@H]3[C@@H](C)[C@H](C)CC[C@]3(C)CC[C@]21C | cell growth or viability | MTT | 48 h | – | – | 14.8 µM |
| COc1ccc(/C=C/C2=[N+]3C(=C(CO)c4c(C)cc(/C=C/c5ccc(OC)cc5)n4[B-]3(F)F)C(C)=C2C=O)cc1 | cell growth or viability | resazurin | – | dark | – | > 100 µM |
| O=C1c2ccc3c4cccc5cccc(c6ccc(c2c36)C(=O)N1CCN1CCCCC1)c54 | cell growth or viability | SRB | 72 h | – | – | 38.4 µM |
| CN1CCC2(CC1)C/C(=N\NC(=O)Nc1ccc([N+](=O)[O-])cc1)c1ccccc1O2 | cell growth or viability | MTT | 48 h | – | – | 71.5 µM |
| Cc1ccc(C(C)C)cc1.Oc1ccccc1C=NNC1=Nc2ccccc2-c2[nH]c3ccc(Br)cc3c2C1.[Cl-].[Cl][Ru+] | cell growth or viability | MTT | 96 h | – | – | 3.1 µM |

| SMILES | effect on | method | time | notes | together with | IC50 |
| --- | --- | --- | --- | --- | --- | --- |
| Cc1cc(C#N)cc(C)c1Oc1cc(Nc2ccc(C#N)cn2)nc2cnccc12 | – | – | 48 h | – | – | > 127 µM |
| C[OH+][Cu-2]12[O]C(c3cn(-c4ccccc4)nc3-c3ccc(Cl)cc3)=N[N+]1=C(C)c1c(cc(C)oc1=O)[O]2 (centres unmarked) | cell growth or viability | MTT | 48 h | – | – | 3.84 µM and 6.9 µM |
| CCCC(CCC)C(=O)[O][Pt]1([O]C(=O)C(CCC)CCC)[O]C(=O)C(=O)[O]1.NC1CCCCC1N | cell growth or viability | – | – | – | – | 20.5 µM |
| N=c1c2sc3sc4c(=N)n(-c5ccccc5)c(=S)[nH]c4c3c2[nH]c(=S)n1-c1ccccc1 | cell growth or viability | MTT | – | – | – | 9.27 µM |
| C=C(C)[C@@H]1CC[C@]2(C(=O)O)CC[C@]3(C)[C@H](CC[C@@H]4[C@@]5(C)CC[C@H](O[C@@H]6O[C@@H](C)[C@H](O)[C@@H](OC)[C@H]6O)C(C)(C)[C@@H]5CC[C@]43C)[C@@H]12 | cell growth or viability | fluorescence | 48 h | – | – | 10 µM |
| Cc1cccc(-c2cccc(C)n2)n1.[Cl-].[Cl-].[Ru+2].c1ccc(-c2ccccn2)nc1.c1ccc(-c2ccccn2)nc1 | cell growth or viability | – | 72 h | dark | – | > 100 µM |
| CCCCCCCCSc1nc(N)c2c(F)c(C#N)c(F)c(Cl)c2n1 | cell growth or viability | MTT | 96 h | – | – | > 100 µM |
| C=CC(=C)CC[C@]1(C)[C@H](C)C[C@H](O)[C@@]23C(=C[C@H](OC(=O)C(C)C)C[C@@H]12)[C@@H](OC(C)=O)O[C@H]3OC(C)=O | cell growth or viability | SRB | – | – | – | 0.66 µM |
| Cc1cc(C)c([N+]#[C][Pd-2]([Cl])([Cl])[C]#[N+]c2c(C)cc(C)cc2C)c(C)c1 | cell growth or viability | – | – | – | – | > 100 µM |
| CCCCSc1nc(N)c2c(F)c(C#N)c(F)c(F)c2n1 | cell growth or viability | MTT | 96 h | – | – | 41.1 µM |
| COc1c(O)cc2oc3cc4c(c(O)c3c(=O)c2c1CC=C(C)C)CC(O)O4 (centres unmarked) | cell growth or viability | – | 48 h | – | – | 18 µM |
| [Cl-].[Cl-].[Ru+2].c1ccc2nc(-c3ccc4ccccc4n3)ccc2c1.c1ccc2nc(-c3ccc4ccccc4n3)ccc2c1.c1cnc2c(c1)ccc1cccnc12 | – | resazurin | 72 h | – | indigo light 450 nm, 29.1 J/cm2 | 9.2 µM |
| O=C1N=C(N2N=C(c3cccs3)CC2c2ccc(F)cc2)S/C1=C\c1ccc(Cl)cc1 (centres unmarked) | cell growth or viability | MTT | – | – | – | 33.8 µM |
| Cc1nccn1-c1nc(NN=Cc2c[nH]c3ccccc23)nc(Nc2ccc(Br)cc2)n1 | cell growth or viability | SRB | 5 days | – | – | 0.6 µM |
| S=c1n(-c2ccccc2)c2c3ccccc3nc3[n+]2[n]1[Ir-3]12([S]3)([c]3ccc4ccccc4c3-c3sc4ccccc4[n+]31)[c]1ccc3ccccc3c1-c1sc3ccccc3[n+]12 | cell viability | MTT | – | irradiation 450 nm, 15.5 mW/cm^2, 15 min | – | 0.069 ± 0.02 µM |
| C=CC(=O)Nc1cc(Nc2nccc(-c3c(-c4cccc(OC)c4)n(C)c4ccccc34)n2)c(OC)cc1N(C)CCN(C)C | cell growth or viability | MTT | 72 h | – | – | 0.301 µM |
| Cc1c(C)c(C)[c-](C)c1C.Cc1ccnc(-c2[c-]cccc2)c1.[Cl-].[Ir+3] | – | SRB | 24 h | 72 h recovery | – | 8.7 ± 0.3 µM |
| COC1=C(OC)C(O)C(CC=C(C)CCC=C(C)CCC=C(C)C(=O)O)C(C)C1=O (centres unmarked) | cell growth or viability | MTS | 12 h | – | – | 10.8 µM |
| COc1cccc(-c2ccc(Nc3ccc(CN(C)C)cc3)c(OC)c2F)c1 | cell growth or viability | ATP luminescence | 72 h | – | – | 12.9 µM |
| CC1(C)[C@@H](O)CC[C@]2(C)[C@H]3C(=O)C=C4[C@@H]5C[C@@](C)(C(=O)O)CC[C@]5(C)CC[C@@]4(C)[C@]3(C)CC[C@@H]12 | cell growth or viability | MTT | – | – | – | > 40 µM |

For quick reference, copied from above:
| SMILES | effect on | method | time | notes | together with | IC50 |
| --- | --- | --- | --- | --- | --- | --- |
| CC(=O)O[C@@H]1CC[C@@]2(C)[C@@H](CC[C@]3(C)[C@@H]2C(=O)C=C2[C@@H]4[C@@H](C)[C@H](C)CC[C@]4(C)CC[C@]23C)[C@@]1(C)C(=O)NCCNC(=O)CCCCCCC[P+](c1ccccc1)(c1ccccc1)c1ccccc1 | cell growth or viability | MTT | 48 h | – | – | 18.4 µM |
| Oc1ccccc1-n1nc(-c2ccccc2)n[n+]1-c1ccccc1 | cell growth | resazurin | – | – | – | 320 ± 20 µM |
| CC1=CC(C)=[O+][Pt-2]([NH3+])([NH3+])[O]1.CC1=CC(C)=[O+][Pt-2]([NH3+])([NH3+])[O]1.O=S(=O)([O-])[O-] (centres unmarked) | cell growth or viability | MTT | – | – | – | 28 µM |
| [Cl][Cu][Cl].c1ccc(-c2nnc(-c3ccc4c(c3)OCO4)[nH]2)nc1 | cell growth or viability | MTT | 24 h | – | – | 4.17 µM |
| C=C1CC23CC4C5C6(C)CC(O)CC57C(C2C(O)C1C(O)C37)N4C6 (centres unmarked) | cell growth or viability | MTT | – | – | – | 17.7 µM |
| COc1c(C)c(OS(=O)(=O)c2ccccc2)c(C)c(O)c1C(=O)/C=C/c1ccccc1 | cell growth or viability | SRB | 72 h | – | – | 26.3 µM |
